Measurements pooled from the literature.
Lines come from different studies, so protocols differ. ± marks the error that the study gave.

SMILES | test | test system | conditions | Cmax
C/C=C/C=C/C/C=C/CCCCCCCc1cccc(O)c1O | – | male Wistar rat, plasma | intravenous, 20 mg/kg | 8080 ng/mL
CC(=CCC(O)C(C)=Cc1csc(C)n1)CC=CC(C)C(O)C(C)C(=O)C(C)(C)C(O)CC(=O)O (stereo not shown) | – | human, plasma | intravenous infusion, 36 mg/m2 KOS-1584, 3 h infusion, cycle 1 | 35.6 ± 24 ng/mL
CCCCCCCC(=O)OC[C@H](NC(=O)[C@H](CO)NC(=O)CN)C(=O)N[C@@H](Cc1ccccc1)C(=O)N[C@@H](CC(C)C)C(=O)N[C@@H](CO)C(=O)N1CCC[C@H]1C(=O)N[C@@H](CCC(=O)O)C(=O)N[C@@H](Cc1cnc[nH]1)C(=O)N[C@@H](CCC(N)=O)C(=O)N[C@@H](CCCNC(=N)N)C(=O)N[C@H](C(=O)N[C@@H](CCC(N)=O)C(=O)N[C@@H](CCC(N)=O)C(=O)N[C@@H](CCCNC(=N)N)C(=O)N[C@@H](CCCCN)C(=O)N[C@@H](CCC(=O)O)C(=O)N[C@@H](CO)C(=O)N[C@@H](CCCCN)C(=O)N[C@@H](CCCCN)C(=O)N1CCC[C@H]1C(=O)N1CCC[C@H]1C(=O)N[C@@H](C)C(=O)N[C@@H](CCCCN)C(=O)N[C@@H](CC(C)C)C(=O)N[C@@H](CCC(N)=O)C(=O)N1CCC[C@H]1C(=O)N[C@@H](CCCNC(=N)N)C(=O)O)C(C)C | two-site ELISA | human, plasma | intravenous infusion, 5 µg/kg/h, 65 min infusion | 19.6 ± 2.3 ng/mL
CCN(C)C(=O)Oc1ccccc1/C=C1\Cc2cc(OC)c(OC)cc2C1=O | – | male Sprague-Dawley rat, plasma | oral, 100 mg/kg, single dose | 350 ng/mL
CC(C)(CCCC/C=C/CCCCCC(C)(C)C(=O)O)C(=O)O | – | blood | oral, concentration not given, multiple doses | > 100000 ng/mL
CCCCCCCC(=O)NC[C@H](NC(=O)[C@H](CO)NC(=O)CN)C(=O)N[C@@H](Cc1ccccc1)C(=O)N[C@@H](CC(C)C)C(=O)N[C@@H](CO)C(=O)N1CCC[C@H]1C(=O)N[C@@H](CCC(=O)O)C(=O)N[C@@H](Cc1c[nH]cn1)C(=O)N[C@@H](CCC(N)=O)C(=O)N[C@@H](CCCNC(=N)N)C(=O)N[C@H](C(=O)N[C@@H](CCC(N)=O)C(=O)N[C@H](C(=O)N[C@@H](CCCNC(=N)N)C(=O)N1CCC[C@H]1C(=O)N1CCC[C@H]1C(=O)N[C@@H](Cc1c[nH]cn1)C(=O)N[C@@H](CCCCN)C(=O)N[C@@H](C)C(=O)N1CCC[C@H]1C(=O)N[C@@H](Cc1c[nH]cn1)C(=O)N[C@H](C(=O)N[C@H](C(=O)O)C(C)C)C(C)C)C(C)C)C(C)C | – | mouse, plasma | intraperitoneal, 1.2 mg/kg | 36.3 ng/mL
O=c1cc(-c2ccccc2)oc2c(Br)c(O)c(O)c(O)c12 | – | C57BL/6 mouse, plasma | oral, 50 mg/kg, single dose | 323 ng/mL
CCc1c2c(nc3ccc(OC4OC(C(=O)O)C(O)C(O)C4O)cc13)-c1cc3c(c(=O)n1C2)COC(=O)C3(O)CC (stereo not shown) | – | human patients, plasma | intravenous, 32 mg/m^2 of parent drug | 38 ng/mL
[2H]C([2H])([2H])C([2H])([2H])C([2H])([2H])OC(C(=O)OC1CCNCC1)(c1ccccc1)c1ccccc1 | – | healthy Japanese male subjects, plasma | oral, 12 mg once daily, day 1, fed, mean | 27.2 ng/mL
CC[C@H](C)C(=O)N1CCC(NC(=O)Nc2ccc(OC(F)(F)F)c(F)c2)CC1 | – | human | oral, 8 mg, fasted, geometric LS mean | 35.3 ng/mL
